Earlier results, collected from citations in different studies.
Protocols differ between the studies behind these lines.

Cc1c(O)cccc1C(=O)N[C@@H](CSc1ccccc1)[C@H](O)CN1C[C@H]2CCCC[C@H]2C[C@H]1C(=O)NC(C)(C)C — concentration for complete inhibition (SARS-CoV; viral replication; not reached): > 10 µM
Cc1cnc(C(=O)N[C@H]2CCCCC/C=C\[C@@H]3C[C@@]3(C(=O)NS(=O)(=O)C3CC3)NC(=O)[C@@H]3C[C@@H](Oc4nc5ccccc5c5ccccc45)CN3C2=O)cn1 — IC50 (SARS-CoV-2; viral replication; 293T/ACE2): 0.55 µM
Nc1ccn(C[C@@H](CO)OCP(=O)(O)O)c(=O)n1 — IC50 (vaccinia virus): 46.2 µM
CCC(C(=O)Nc1sc(C(N)=O)c(C)c1C(=O)OC)c1ccccc1 (centres unmarked) — IC50 (vaccinia virus DNA polymerase; processive DNA synthesis, inhibitor): 13.4 µM
N[C@@H](CC(=O)N1CCn2c(nnc2C(F)(F)F)C1)Cc1cc(F)c(F)cc1F — IC50 (SARS-CoV-2; viral replication; Huh7.5): 0.32 µM
OC[C@H]1O[C@H]([S-])[C@H](O)[C@@H](O)[C@@H]1O.[Au+] — inhibition (SARS-CoV-2; viral cytopathic effect; Vero E6; 20 µM): -0.05%
C[C@H](NCc1ccc(OCc2cccc(F)c2)cc1)C(N)=O — IC50 (TTX-sensitive sodium channel; sodium current; hippocampal neurons; resting potential): ~100 µM
COc1ccc2c(O[C@@H]3C[C@H]4C(=O)N[C@]5(C(=O)NS(=O)(=O)C6CC6)C[C@H]5/C=C\CCCCN(C)C(=O)[C@@H]4C3)cc(-c3nc(C(C)C)cs3)nc2c1C — EC50 (SARS-CoV-2; viral replication; A549-hACE2): 9 µM

For quick reference, copied from above:
COc1ccc2c(O[C@@H]3C[C@H]4C(=O)N[C@]5(C(=O)NS(=O)(=O)C6CC6)C[C@H]5/C=C\CCCCN(C)C(=O)[C@@H]4C3)cc(-c3nc(C(C)C)cs3)nc2c1C — EC50 (SARS-CoV-2; viral replication; A549-hACE2): 9 µM
